{"data": "Measured values from different studies", "note": "Each numbered part is a random draw from the data of one study; scales do not carry over between parts."}
{"data": "Sample 1", "target": "Histone acetyltransferase KAT6A, winged helix 2, GST fusion (KAT6A, Homo sapiens, UniProt Q92794, residues 85-181)", "method": "protein binding microarray", "form": "double-stranded DNA, one strand shown", "matrix": "in vitro", "concentration": "not given", "notes": "8-mer, flanks averaged, mean of 2 arrays, mostly near background", "baseline": "not given", "direction": "higher = stronger binding", "Target sequence (chain)": "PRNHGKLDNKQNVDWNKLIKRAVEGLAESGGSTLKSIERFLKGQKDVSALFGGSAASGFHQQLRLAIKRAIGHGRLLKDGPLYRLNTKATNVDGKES"}
{"Oligonucleotide": "CCCGTCGA", "E-score": 0.117}
{"Oligonucleotide": "TACTCGGA", "E-score": 0.123}
{"Oligonucleotide": "CAAGTTGG", "E-score": 0.0144}
{"Oligonucleotide": "TACAGCAA", "E-score": 0.12}
{"data": "Sample 2", "target": "Phosphate system positive regulatory protein PHO4, full length, GST-tagged (PHO4, Saccharomyces cerevisiae, UniProt P07270, residues 1-312)", "method": "competition protein-binding microarray", "form": "double-stranded DNA, one strand shown", "matrix": "in vitro", "concentration": "2 µM", "notes": "whole 60-bp probe, lowest competitor level", "together with": "Cbf1 competitor, 0.05 µM", "direction": "higher = stronger binding", "Construct (chain)": "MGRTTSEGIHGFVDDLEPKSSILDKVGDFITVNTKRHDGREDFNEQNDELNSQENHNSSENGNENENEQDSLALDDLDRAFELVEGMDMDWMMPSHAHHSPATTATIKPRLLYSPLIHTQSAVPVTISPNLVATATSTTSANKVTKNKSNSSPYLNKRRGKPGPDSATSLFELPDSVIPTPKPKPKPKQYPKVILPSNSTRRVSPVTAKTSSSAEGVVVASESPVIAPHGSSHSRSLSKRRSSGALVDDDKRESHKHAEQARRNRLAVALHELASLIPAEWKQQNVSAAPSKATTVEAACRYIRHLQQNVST"}
{"Oligonucleotide": "CGTCCTAGTGATTGCGTGGTGGGTGCCATGAGGAAGGTCTTGATTCGCTTGACGCTGCTG", "fluorescence intensity [a.u.]": 9180}
{"Oligonucleotide": "CTTCTGTAAATTTTTCACGTGGTGTGAAGCGCCCCGGTCTTGATTCGCTTGACGCTGCTG", "fluorescence intensity [a.u.]": 12800}
{"Oligonucleotide": "AAATTACTAAGTTGTCACAAGACTTACCCCGTATGAGTCTTGATTCGCTTGACGCTGCTG", "fluorescence intensity [a.u.]": 3490}
{"data": "Further values, each from its own experiment", "TARDBP full length, His tag": "TAR DNA-binding protein 43, full length, His tag (TARDBP, Homo sapiens, UniProt Q13148, residues 1-414)"}
{"Molecule": "CUCUAG", "target": "TARDBP full length, His tag", "test": "RNA Bind-n-Seq", "system": "RNA, in vitro", "setting": "20 nM, 6-mer, flanks averaged, single round, together with: 150 mM LiCl", "how to read": "baseline: input library, higher = stronger binding", "measurement": "6-mer enrichment (R)", "value": 0.833}
{"Molecule": "PhoQ, residues 284 288 289 292 302 303 TAVSDG", "target": "PhoP, residues 12 14 15 18 19 VHSCL (Escherichia coli, UniProt P23836)", "test": "Sort-seq, measured: YFP reporter", "system": "E. coli", "setting": "PhoQ-PhoP variant library, together with: 10 µM Mg2+", "how to read": "baseline: high Mg2+ state, higher = stronger signaling", "measurement": "fold induction", "value": 10.5}
{"Molecule": "AUCCUC", "target": "TARDBP full length, His tag", "test": "RNA Bind-n-Seq", "system": "RNA, in vitro", "setting": "20 nM, 6-mer, flanks averaged, single round, together with: 150 mM LiCl", "how to read": "baseline: input library, higher = stronger binding", "measurement": "6-mer enrichment (R)", "value": 0.849}
{"note": "For quick reference, copied from above (further values, each from its own experiment):"}
{"Molecule": "AUCCUC", "target": "TARDBP full length, His tag", "test": "RNA Bind-n-Seq", "system": "RNA, in vitro", "setting": "20 nM, 6-mer, flanks averaged, single round, together with: 150 mM LiCl", "how to read": "baseline: input library, higher = stronger binding", "measurement": "6-mer enrichment (R)", "value": 0.849}
